Measurements from different studies.
Every numbered part comes from another study and shows a few of its results, in no order.

Sample 1
Target: Interferon regulatory factor 7, full length, phosphomimetic (IRF7, Homo sapiens, UniProt Q92985, residues 1-503, S101K/S471D/S472D/S475D/S476D/S477D/S483D/S484D/S487D)
Method: protein-binding microarray
Molecule type: double-stranded DNA, one strand shown
Sample: in vitro
Concentration: 250 nM
Setting: 60-bp whole probe
Together with: salmon DNA 0.4 mg/ml
Reference: random background probes
Direction: higher = stronger binding
Constant ends, left off below: GCCTAGCAC … GTCTTGATTCGCTTGACGCTGCTG
Construct (chain): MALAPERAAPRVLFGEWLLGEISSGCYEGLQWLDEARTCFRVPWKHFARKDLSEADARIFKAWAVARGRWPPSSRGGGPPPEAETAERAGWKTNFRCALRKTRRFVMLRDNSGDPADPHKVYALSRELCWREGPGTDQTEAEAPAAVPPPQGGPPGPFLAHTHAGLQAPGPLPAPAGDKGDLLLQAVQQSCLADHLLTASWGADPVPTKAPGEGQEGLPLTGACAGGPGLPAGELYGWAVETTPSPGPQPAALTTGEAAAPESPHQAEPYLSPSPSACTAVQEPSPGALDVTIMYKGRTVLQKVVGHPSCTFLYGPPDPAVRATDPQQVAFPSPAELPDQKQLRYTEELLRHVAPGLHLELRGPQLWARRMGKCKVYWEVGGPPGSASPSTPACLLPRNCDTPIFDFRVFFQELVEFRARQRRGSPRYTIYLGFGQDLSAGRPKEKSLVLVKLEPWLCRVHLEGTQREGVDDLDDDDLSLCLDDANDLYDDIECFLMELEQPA
Sequence | log fluorescence [z-score]
GACGATTTCGGGTCTCGAGACGTGCTA | 1.51
TTAAGTATCCTTATCCTTTAGTGCTAG | 0.69
GGGCCTTGCATGTTTTTGACAGTGCTA | -0.227
TTAGGTATCGACTTTCGGTGAGTGCTA | 1.37
TTAGGTTCCGGTTTCGTTTAGTGCTAG | 11.8
CACGGTCTCCTACTGCTGACGTGCTAG | -0.255
TTTGGTTTCCTTTTCCTTTAGTGCTAG | 8.38
TCAGCTTCCTCTCTGCCACTGTGCTAG | 0.253

Sample 2
Target: Prothrombin, mature alpha-thrombin (F2, Homo sapiens, UniProt P00734)
Method: aptamer microarray, sandwich
Molecule type: DNA with 2'F-ANA
Sample: in vitro
Concentration: 200 nM
Setting: whole 15-mer aptamer, many near background
Together with: Cy3 exosite-II aptamer, 400 nM
Direction: higher = stronger binding
Sequence: GGTTGGTGTGGTTGG
Modification | mean fluorescence intensity [a.u.]
2'F-ANA at 1 2 3 5 6 8 9 10 11 12 13 14 | 55.4
2'F-ANA at 1 4 7 8 9 10 11 12 | 62.5
2'F-ANA at 1 4 5 8 10 11 13 | 65.9
2'F-ANA at 3 4 5 6 9 10 11 12 13 14 15 | 50.4
2'F-ANA at 3 4 8 10 11 12 13 15 | 254
2'F-ANA at 2 3 6 10 12 15 | 388
2'F-ANA at 1 3 7 8 9 11 12 13 | 435
2'F-ANA at 2 4 5 6 7 8 10 12 13 15 | 54.4

Sample 3
Target: PABPC1L2, full length, GST fusion (mouse, UniProt A0ABA7IW68)
Method: RNAcompete
Molecule type: RNA
Sample: in vitro
Concentration: 20 nM
Setting: 7-mer, probes averaged, single round
Reference: mean of 7-mers
Direction: higher = stronger binding
Construct (chain): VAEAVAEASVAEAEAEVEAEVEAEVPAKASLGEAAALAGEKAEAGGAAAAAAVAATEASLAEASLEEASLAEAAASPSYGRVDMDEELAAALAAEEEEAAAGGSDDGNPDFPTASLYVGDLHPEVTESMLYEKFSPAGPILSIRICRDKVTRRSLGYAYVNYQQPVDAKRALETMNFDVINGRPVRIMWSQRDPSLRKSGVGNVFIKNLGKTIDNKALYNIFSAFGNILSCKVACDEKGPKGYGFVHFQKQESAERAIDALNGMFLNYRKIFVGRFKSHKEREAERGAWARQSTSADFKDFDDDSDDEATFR
Sequence | 7-mer Z-score
CAAGUUA | -0.0917
CCUUCGA | -0.318
CCUUACU | -0.342
CGCUCCU | -0.228
AGCCAGC | -0.208
GCUUGUC | -0.378
AUCUUGA | -0.173
UUCCAAU | -0.278

Mixed results
SMILES | test system | setting | measurement | value
CCN1CCn2c1nc(N1CCOCC1)nc2=O | mouse, microsomes or S9 | 2 µM, 0.5 h | remaining compound | > 99.9%
